Measured values pooled from the literature.
Parts stem from different laboratories: compare values within a part only.

Series 1 — method: protein binding microarray; form: double-stranded DNA, one strand shown; matrix: in vitro; tested at: not given; relative to: not given; reading: higher = stronger binding
Target: Histone acetyltransferase KAT6A, both winged helices, GST fusion (KAT6A, Homo sapiens, UniProt Q92794, residues 1-181)
Setting: 8-mer, flanks averaged, mean of 2 arrays, mostly near background
Residues (chain): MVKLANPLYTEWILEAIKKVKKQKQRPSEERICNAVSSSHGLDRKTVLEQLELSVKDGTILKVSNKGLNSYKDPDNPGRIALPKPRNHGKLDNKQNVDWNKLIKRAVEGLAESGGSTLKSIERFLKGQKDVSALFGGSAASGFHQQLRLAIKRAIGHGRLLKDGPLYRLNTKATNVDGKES
Oligonucleotide | E-score
CACTTCGG | 0.0246
CCCCCAGC | -0.134
GAGCTGAA | -0.229
TACCACGA | -0.135

Series 2 — method: universal PBM; form: double-stranded DNA, one strand shown; matrix: in vitro; tested at: 600 nM; reading: higher = stronger binding
Target: Sal-like protein 4, full length isoform A (SALL4, Homo sapiens, UniProt Q9UJQ4, residues 1-1053)
UniProt Q9UJQ4, sequence (whole entry, looked up): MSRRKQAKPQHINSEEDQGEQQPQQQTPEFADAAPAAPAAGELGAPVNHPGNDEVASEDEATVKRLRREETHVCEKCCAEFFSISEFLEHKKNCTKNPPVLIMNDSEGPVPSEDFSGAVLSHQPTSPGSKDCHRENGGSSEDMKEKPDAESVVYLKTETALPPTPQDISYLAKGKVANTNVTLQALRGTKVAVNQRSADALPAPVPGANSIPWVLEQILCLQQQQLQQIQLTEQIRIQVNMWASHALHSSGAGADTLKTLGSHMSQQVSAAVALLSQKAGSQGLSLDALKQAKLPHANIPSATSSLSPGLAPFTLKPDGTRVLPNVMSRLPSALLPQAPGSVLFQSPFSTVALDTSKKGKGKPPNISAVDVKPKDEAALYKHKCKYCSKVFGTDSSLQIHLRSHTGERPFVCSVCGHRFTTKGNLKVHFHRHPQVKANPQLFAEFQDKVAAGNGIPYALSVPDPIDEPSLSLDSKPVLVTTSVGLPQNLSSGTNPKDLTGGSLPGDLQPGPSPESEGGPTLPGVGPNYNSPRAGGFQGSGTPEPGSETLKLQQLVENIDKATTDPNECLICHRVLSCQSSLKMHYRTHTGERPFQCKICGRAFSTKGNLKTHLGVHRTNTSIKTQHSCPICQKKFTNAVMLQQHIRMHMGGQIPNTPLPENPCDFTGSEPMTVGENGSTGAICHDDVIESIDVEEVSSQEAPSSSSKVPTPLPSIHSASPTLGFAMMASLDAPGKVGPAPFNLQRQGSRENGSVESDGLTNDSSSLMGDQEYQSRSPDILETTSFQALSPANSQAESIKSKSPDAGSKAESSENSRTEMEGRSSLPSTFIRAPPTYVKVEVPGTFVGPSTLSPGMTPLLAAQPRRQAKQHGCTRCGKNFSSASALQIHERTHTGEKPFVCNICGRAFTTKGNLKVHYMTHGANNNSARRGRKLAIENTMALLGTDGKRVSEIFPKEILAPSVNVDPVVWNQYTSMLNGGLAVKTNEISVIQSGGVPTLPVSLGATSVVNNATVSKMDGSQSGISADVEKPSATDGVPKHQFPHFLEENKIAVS
Setting: 8-mer, flanks averaged, mean of replicates
Oligonucleotide | E-score
GATCCTTA | 0.0111
AATGCGGA | -0.00347
CAACTGTA | 0.156
ACTCCCTC | -0.233

Series 3 — method: competition protein-binding microarray; form: double-stranded DNA, one strand shown; matrix: in vitro; tested at: 2 µM; added: Pho4 competitor, 0.05 µM; reading: higher = stronger binding; shared flanks, not repeated: … GTCTTGATTCGCTTGACGCTGCTG
Target: Centromere-binding protein 1, full length, His-tagged (CBF1, Saccharomyces cerevisiae, UniProt P17106, residues 1-351)
UniProt P17106, sequence (whole entry, looked up): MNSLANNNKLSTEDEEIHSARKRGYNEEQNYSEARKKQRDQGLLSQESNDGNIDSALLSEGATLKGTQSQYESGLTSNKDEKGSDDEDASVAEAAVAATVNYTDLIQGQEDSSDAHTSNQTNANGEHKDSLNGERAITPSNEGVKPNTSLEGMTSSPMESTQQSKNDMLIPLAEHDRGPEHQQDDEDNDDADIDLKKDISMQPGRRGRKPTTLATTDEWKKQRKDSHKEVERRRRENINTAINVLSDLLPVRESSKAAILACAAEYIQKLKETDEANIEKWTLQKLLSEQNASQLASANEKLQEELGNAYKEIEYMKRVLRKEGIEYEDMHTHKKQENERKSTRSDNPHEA
Setting: whole 60-bp probe, lowest competitor level
Oligonucleotide | fluorescence intensity
CCAGGCCTCCAAGCCCACGTGACAACAAGCTCCGCC | 3240 a.u.
CATACCCAACCTTGCTGAGTGGGTGAAGATATTTGT | 75.1 a.u.
CATACCCAACCTTGCAAGGTGGGTGAAGATATTTGT | 55.7 a.u.
ACCCAGGGGCGCCCCCACGTGGGGTCTGGGAGCGCG | 369 a.u.
TCTTTTTCGACCGGCCACGTGAGAAGACATACAGTT | 1090 a.u.
CATACCCAACCTTGTCACACCACTTAAGATATTTGT | 134 a.u.

Mixed results
Substance | target | assay | test system | setting | scale | measurement | value
PhoQ, residues 284 288 289 292 302 303 AGGCYF | PhoP, residues 12 14 15 18 19 AWHSL (Escherichia coli, UniProt P23836) | Sort-seq, item: YFP reporter | E. coli | PhoQ-PhoP variant library, added: 10 µM Mg2+ | relative to: high Mg2+ state, higher = stronger signaling | fold induction | 4.18

Some of these lines once more (series 2):
Oligonucleotide | E-score
CAACTGTA | 0.156
ACTCCCTC | -0.233
